# Assay results pooled from the literature.
# Numbered parts are unrelated; each lists some results of a single study. “And” joins repeats or separate records; there may be more than shown.
# UniProt Q00532, sequence (whole entry, looked up): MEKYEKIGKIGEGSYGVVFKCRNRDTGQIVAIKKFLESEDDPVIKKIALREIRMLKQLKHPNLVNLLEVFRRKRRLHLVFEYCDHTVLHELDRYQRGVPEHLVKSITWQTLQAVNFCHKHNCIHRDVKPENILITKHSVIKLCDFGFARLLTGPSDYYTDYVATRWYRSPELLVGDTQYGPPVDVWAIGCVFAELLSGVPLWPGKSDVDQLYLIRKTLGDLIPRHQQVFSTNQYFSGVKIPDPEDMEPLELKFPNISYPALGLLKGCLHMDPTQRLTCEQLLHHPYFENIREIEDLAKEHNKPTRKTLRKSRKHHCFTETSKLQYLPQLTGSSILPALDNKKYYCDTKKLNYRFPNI
# UniProt O14733, sequence (whole entry, looked up): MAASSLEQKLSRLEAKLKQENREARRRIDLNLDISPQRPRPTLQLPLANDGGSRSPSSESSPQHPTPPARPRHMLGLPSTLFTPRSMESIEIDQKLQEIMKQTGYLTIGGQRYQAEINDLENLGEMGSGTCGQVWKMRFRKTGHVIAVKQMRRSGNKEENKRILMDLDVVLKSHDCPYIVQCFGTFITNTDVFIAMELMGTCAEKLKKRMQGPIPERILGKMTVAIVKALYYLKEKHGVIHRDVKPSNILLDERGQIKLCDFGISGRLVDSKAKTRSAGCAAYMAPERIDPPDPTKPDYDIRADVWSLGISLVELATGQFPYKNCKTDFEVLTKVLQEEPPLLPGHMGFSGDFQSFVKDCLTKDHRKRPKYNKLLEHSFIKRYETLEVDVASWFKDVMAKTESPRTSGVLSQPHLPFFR
# UniProt P51812, sequence (whole entry, looked up): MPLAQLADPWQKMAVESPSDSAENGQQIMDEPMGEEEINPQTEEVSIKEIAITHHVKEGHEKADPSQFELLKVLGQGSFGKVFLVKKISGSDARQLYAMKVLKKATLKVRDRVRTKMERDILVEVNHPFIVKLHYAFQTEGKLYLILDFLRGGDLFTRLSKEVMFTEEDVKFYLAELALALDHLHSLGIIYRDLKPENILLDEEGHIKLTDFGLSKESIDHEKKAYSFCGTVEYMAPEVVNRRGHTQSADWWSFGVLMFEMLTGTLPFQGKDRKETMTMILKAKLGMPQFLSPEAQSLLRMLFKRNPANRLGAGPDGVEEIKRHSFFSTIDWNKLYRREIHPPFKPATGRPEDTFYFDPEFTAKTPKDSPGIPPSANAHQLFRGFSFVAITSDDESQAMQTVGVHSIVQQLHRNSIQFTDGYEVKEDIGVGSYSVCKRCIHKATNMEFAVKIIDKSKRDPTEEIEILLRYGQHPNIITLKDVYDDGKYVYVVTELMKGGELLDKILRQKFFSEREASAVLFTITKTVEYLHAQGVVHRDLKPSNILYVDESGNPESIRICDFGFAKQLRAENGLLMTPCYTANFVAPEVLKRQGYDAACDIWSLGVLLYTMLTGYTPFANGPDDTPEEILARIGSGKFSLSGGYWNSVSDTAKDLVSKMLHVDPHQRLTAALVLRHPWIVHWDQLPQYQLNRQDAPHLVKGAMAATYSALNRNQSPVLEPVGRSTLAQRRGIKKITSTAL
# UniProt P42681, sequence (whole entry, looked up): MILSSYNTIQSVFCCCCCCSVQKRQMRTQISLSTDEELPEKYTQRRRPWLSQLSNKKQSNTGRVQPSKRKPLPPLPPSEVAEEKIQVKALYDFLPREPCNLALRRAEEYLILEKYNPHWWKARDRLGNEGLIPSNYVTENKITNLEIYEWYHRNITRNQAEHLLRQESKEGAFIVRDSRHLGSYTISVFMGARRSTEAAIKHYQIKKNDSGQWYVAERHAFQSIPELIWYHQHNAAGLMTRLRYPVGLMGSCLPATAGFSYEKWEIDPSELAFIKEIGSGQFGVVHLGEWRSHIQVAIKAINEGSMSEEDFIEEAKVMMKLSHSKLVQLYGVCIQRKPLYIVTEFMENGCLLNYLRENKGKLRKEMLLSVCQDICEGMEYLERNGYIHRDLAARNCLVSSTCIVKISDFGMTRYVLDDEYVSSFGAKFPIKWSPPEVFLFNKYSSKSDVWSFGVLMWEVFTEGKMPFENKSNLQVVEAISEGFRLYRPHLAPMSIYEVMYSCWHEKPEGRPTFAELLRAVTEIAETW
# UniProt Q13464, sequence (whole entry, looked up): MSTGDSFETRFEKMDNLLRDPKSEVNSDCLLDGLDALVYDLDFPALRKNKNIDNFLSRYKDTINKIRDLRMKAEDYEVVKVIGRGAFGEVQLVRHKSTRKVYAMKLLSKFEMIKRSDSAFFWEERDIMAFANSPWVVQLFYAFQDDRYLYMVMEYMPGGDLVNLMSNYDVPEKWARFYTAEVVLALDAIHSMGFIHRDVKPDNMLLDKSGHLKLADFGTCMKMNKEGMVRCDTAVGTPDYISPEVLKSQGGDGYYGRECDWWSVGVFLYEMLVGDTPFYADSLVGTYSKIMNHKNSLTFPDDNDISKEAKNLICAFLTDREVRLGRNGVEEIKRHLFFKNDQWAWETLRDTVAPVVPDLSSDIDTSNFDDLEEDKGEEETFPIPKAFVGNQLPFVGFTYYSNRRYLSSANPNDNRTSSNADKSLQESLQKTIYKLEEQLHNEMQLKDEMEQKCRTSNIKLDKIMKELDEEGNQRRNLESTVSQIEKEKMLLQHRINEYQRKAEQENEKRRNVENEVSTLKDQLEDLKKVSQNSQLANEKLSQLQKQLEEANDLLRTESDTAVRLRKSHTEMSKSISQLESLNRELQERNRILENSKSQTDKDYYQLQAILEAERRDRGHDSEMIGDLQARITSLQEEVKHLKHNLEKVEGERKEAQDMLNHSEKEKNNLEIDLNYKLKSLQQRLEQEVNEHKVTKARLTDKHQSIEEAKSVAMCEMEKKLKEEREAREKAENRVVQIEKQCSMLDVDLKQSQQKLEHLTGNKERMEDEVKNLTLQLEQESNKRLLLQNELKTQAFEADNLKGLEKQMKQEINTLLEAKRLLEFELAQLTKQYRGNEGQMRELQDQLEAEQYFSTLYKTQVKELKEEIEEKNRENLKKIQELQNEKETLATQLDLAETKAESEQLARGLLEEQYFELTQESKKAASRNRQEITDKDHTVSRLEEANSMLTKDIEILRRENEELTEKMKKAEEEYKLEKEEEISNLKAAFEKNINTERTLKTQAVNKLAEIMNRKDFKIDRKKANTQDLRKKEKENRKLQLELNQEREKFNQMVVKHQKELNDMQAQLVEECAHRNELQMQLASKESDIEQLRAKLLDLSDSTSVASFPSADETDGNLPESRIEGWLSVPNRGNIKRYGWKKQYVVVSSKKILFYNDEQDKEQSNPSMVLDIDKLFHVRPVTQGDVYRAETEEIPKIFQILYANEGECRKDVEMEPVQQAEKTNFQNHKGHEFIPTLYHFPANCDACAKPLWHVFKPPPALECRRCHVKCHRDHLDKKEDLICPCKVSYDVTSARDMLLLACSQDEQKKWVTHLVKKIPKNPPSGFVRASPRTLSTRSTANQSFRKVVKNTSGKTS
# UniProt Q15349, sequence (whole entry, looked up): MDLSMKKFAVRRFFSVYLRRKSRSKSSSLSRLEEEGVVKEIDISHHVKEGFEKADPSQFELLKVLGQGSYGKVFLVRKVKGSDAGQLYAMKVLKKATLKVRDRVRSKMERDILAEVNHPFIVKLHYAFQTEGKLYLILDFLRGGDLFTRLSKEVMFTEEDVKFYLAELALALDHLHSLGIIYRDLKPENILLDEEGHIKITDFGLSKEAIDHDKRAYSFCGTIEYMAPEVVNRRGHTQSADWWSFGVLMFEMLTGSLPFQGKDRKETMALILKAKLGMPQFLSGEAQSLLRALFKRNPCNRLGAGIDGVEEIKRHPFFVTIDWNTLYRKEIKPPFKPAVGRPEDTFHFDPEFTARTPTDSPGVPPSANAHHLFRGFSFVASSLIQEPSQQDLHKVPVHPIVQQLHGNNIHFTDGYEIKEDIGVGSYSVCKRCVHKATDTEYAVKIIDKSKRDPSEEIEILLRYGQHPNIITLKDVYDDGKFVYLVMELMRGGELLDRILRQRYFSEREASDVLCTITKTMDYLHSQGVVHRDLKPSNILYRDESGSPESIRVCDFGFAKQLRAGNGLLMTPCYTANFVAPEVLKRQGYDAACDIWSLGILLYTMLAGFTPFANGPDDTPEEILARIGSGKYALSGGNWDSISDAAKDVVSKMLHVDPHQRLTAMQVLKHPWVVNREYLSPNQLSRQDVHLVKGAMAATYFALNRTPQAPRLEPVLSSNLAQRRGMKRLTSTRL
# UniProt Q15208, sequence (whole entry, looked up): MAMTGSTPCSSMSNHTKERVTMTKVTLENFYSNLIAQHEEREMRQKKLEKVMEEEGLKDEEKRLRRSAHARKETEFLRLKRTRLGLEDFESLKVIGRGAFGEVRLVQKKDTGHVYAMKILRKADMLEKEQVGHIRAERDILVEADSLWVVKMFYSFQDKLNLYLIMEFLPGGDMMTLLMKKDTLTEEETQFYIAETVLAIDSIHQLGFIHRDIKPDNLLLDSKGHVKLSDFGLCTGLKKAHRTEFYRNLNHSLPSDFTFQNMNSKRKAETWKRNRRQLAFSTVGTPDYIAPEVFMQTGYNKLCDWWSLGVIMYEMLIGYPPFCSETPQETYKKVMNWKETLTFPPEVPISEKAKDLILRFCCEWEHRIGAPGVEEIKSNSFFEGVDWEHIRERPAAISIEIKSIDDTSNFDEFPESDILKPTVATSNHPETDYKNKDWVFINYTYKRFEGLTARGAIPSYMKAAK
# UniProt P41240, sequence (whole entry, looked up): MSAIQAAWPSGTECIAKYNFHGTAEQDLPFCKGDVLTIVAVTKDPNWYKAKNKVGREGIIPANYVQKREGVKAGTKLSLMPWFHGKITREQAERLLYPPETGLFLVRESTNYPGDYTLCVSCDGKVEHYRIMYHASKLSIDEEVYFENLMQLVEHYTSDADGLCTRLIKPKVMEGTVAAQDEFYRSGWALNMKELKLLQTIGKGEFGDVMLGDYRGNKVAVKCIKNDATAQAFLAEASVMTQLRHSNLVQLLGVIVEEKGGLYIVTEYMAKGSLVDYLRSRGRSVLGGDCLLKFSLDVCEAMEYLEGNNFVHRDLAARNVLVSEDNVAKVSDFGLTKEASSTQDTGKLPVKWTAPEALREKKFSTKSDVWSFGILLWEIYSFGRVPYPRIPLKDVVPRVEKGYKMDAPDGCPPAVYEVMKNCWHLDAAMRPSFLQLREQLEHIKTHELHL

# Sample 1
# Target: RNA binding protein fox-1 homolog 2, RRM domain, GST-SBP tag (RBFOX2, Homo sapiens, UniProt O43251-10, residues 100-194)
# Method: RNA Bind-n-Seq
# Molecule type: RNA
# Matrix: in vitro
# Concentration: 365 nM
# Setting: natural RNA segment, single round, ends assumed
# Relative to: no-protein control
# Reading: higher = stronger binding
# Constant ends, left off below: GGGAGUUCUACAGUCCGACGAUC … UGGAAUUCUCGGGUGCCAA
# Residues (chain): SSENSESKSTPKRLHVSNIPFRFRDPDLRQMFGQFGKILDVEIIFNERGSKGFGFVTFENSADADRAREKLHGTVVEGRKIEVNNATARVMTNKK
Strand,RBNS enrichment (R)
UCUAUUCACACUAUGCUUCCUAGAGACAGAACAAAAAUCAUGUAGGGAAAUUGGGGCUAAUGAGAUCAGUGCCAAAUUUCAGCAGAUACCUGUGAGGCUGACACCUGUUG,0.873
UAAUCACUUCGUCAUAAUGUUAAGGGAGAUGCUAGUGUGUGGCAGCCAUGAAAAGUUACACAUACACACCCACAUACAGACAGACCUACCUAUACAUACGUGCACACACA,0.508
CAGUUUUACAUGUAGGUCAUGACUAUACCUGGAUUUUAUCAUUAAGUUAACUUUAAAGUAUAUACAGUUUGCAAAAAAUGAUUCAAAUUAAUUGGUUUGUAUAUGUUUGU,0.696
CAGUCACUAAGAGCAGUGGCUAACCUCAUCGAAGUUGGAAGGAAUGUUUUUAAAAUUACCUCUUCGAGCCUGAAUACAAAGAAUAAAAGAAUAAAAGAAUUCUUUUAAUU,0.768
GCCCUGACUGCUCUUCCACAGGUCCUGAGUUCAAUUCCCAGCAACCACAUGGUGGUUCCCAACCAUCUGUAAUGGGAUCUGAUGCCCUCUUCUGGUGUGUCUGAAGACAA,0.244
GACUGAUGAGUCAGUCACAGUUCCACUGACUCCCAGUUACUGUUCUGAUUAGUGGUAGUUAUUUGCUGGGAACUGACAAAGUUCAUCUUGGCAAUGAUUAAACCCAGCUU,0.327
AGGUUUUGGUAAAUGUGAACUUGUUUCUAGGUUAACAGUCAAGGAGAGGGACAUGAAUCGUGCAUGUUGUUGUUUUUGACAGUGUGGCUGUCAGUUUUGAAUUCCUCCAU,1.54
GACUGGUUUCCAUAUCCCCACCCUACACCAGGGUUCCAUUUGGAAGUAUACCUUGUUUAUCAGUCAGUGUUGCUUAGGUUCUCACUUCUCCAGUCAUUGUAAUGUCUACA,0.299

# Sample 2
# SMILES: CC(C)n1cnc(-c2ccc(F)cc2)c1-c1ncc(C(=O)Nc2ccc(N3CCN(C)CC3)cc2)[nH]1
# Method: phase 2a trial
# Host: idiopathic pulmonary fibrosis patients
conditions,patients with dyspnoea [%]
"dose not given, adverse event grade 1, all dose arms pooled",0
"30 mg once daily, adverse event grade 2",0
"60 mg once daily, adverse event grade 1",0

# Sample 3
# Structure (SMILES): N#CC1(c2ccccn2)CCN(Cc2cc(C(=O)N3CCCC3)c(=O)n3ccccc23)CC1
# Read-out: cell-free assay
# Method: competition with immobilised ligand
# Concentration: 1 µM
target,remaining binding [%]
"Epidermal growth factor receptor (EGFR, Homo sapiens, UniProt P00533, G719S)",100
"1-phosphatidylinositol 3-phosphate 5-kinase (PIKFYVE, Homo sapiens, UniProt Q9Y2I7)",76
"Hepatocyte growth factor receptor (MET, Homo sapiens, UniProt P08581)",95
"Dual specificity mitogen-activated protein kinase kinase 7 (MAP2K7, Homo sapiens, UniProt O14733)",100
"Serine/threonine-protein kinase Nek11 (NEK11, Homo sapiens, UniProt Q8NG66)",63
"Citron Rho-interacting kinase (CIT, Homo sapiens, UniProt O14578)",99
"Serine/threonine-protein kinase 38 (STK38, Homo sapiens, UniProt Q15208)",64
"Ribosomal protein S6 kinase alpha-2, C-terminal kinase domain (RPS6KA2, Homo sapiens, UniProt Q15349)",86
"Serine/threonine-protein kinase N1 (PKN1, Homo sapiens, UniProt Q16512)",91
"Epidermal growth factor receptor (EGFR, Homo sapiens, UniProt P00533, L861Q)",79
"Tyrosine-protein kinase TXK (TXK, Homo sapiens, UniProt P42681)",91
"Dual specificity tyrosine-phosphorylation-regulated kinase 1A (DYRK1A, Homo sapiens, UniProt Q13627)",94
"Rho-associated protein kinase 1 (ROCK1, Homo sapiens, UniProt Q13464)",100
"Ribosomal protein S6 kinase alpha-3, N-terminal kinase domain (RPS6KA3, Homo sapiens, UniProt P51812)",60
"Fibroblast growth factor receptor 2 (FGFR2, Homo sapiens, UniProt P21802)",91
"Serine/threonine-protein kinase Sgk3 (SGK3, Homo sapiens, UniProt Q96BR1)",82
"Cyclin-dependent kinase-like 1 (CDKL1, Homo sapiens, UniProt Q00532)",78

# Sample 4
# Host: human
# Matrix: microsomes or S9
# Concentration: 2 µM
# Time: 0.5 h
SMILES,remaining compound [%]
Cc1cn(S(=O)(=O)c2ccccc2)cc1C(=O)CC(C)C[N+](=O)[O-] (stereo not shown),22.8
Cn1c(=O)c2c(-c3ccncc3)c(Nc3ccccc3)oc2c2ccccc21,73.2
N#Cc1nccnc1OC1CCN(C(=O)C2CC(=O)N(C3CCOCC3)C2)C1 (stereo not shown),87.8
CC(C)OC(=O)c1c(NC(=O)CN2CCN(C)CC2)sc2c1CCCC2,41.3

# Sample 5
# Compound: c1ccc(Oc2ccc(Nc3c4c(nc5ccccc35)CCC4)cc2)cc1
# Method: resazurin
cell line,conditions,cytotoxicity
HepG2,"3.32 µM, 48 h",3% and 2%
HEK293,"6.66 µM, 10% serum",56% and 43%
J774.1,0.0166 µM,-8% and -5%

# Mixed results
SMILES,tested on,test,system,conditions,scale,quantity,result
COc1ccc(-c2c(Nc3ccccn3)[nH]c3c(C4=CCCCC4)c(-c4ccccc4)nn3c2=O)cc1,,,"human, plasma","oral, 200 mg twice daily",,average concentration,10300 ng/mL and 11100 ng/mL
CNCCCN1c2ccccc2CCc2ccccc21,UACC-903 melanoma,,,,,IC50,20.6 µM
O=C(c1ccc(OCCN2CCCCC2)cc1)c1c(-c2ccc(O)cc2)sc2cc(O)ccc12,mouse MPNST tumor cells,"high-content immunofluorescence imaging, refers to: nuclear SOX9",,"10 µM, 12 h, mean of 2 replicates","relative to: DMSO control, higher = more nuclear SOX9",nuclear SOX9 intensity,221 % of DMSO and 211 % of DMSO
C=CC(=O)N1CCC([C@@H]2CCNc3c(C(N)=O)c(-c4ccc(Oc5ccccc5)cc4)nn32)CC1,"Tyrosine-protein kinase CSK (CSK, Homo sapiens, UniProt P41240)","enzyme activity, inhibitor",,1 µM,,inhibition,94%
CC(CN1c2ccccc2Sc2ccccc21)N(C)C (stereo not shown),UACC-903 melanoma,,,,,IC50,17.4 µM
